Earlier results, collected from citations in different studies.
Each numbered part shows a few of the values that one paper quotes.

Study 1 — target: dopamine transporter; endpoint: IC50
Structure (SMILES) = NC(=O)N1c2ccccc2C=Cc2ccccc21; result = > 10 µM
Structure (SMILES) = CC(C)(C)NC(=O)[C@@H]1CN(Cc2cccnc2)CCN1C[C@@H](O)C[C@@H](Cc1ccccc1)C(=O)N[C@H]1c2ccccc2C[C@H]1O; result = > 10 µM
Structure (SMILES) = CN(C)C(=N)N=C(N)N; result = > 10 µM
Structure (SMILES) = O=C(CCCN1CC=C(n2c(=O)[nH]c3ccccc32)CC1)c1ccc(F)cc1; result = > 10 µM

Study 2 — cell line: MCF7; technique: microarray; concentration: concentration not given; relative to: DMSO; endpoint: log2 fold change
SMILES: CCCCCCCCNC(C)C(O)c1ccc(SC(C)C)cc1 (stereo not shown)
assay = measured: VEGFA mRNA; result = 2.22
assay = measured: STX5 mRNA; result = 2.18
assay = measured: TMEM41B mRNA; result = 1.35
assay = measured: USO1 mRNA; result = 1.22
assay = measured: STX3 mRNA; result = 1.63

Study 3 — organism: Cryptosporidium parvum; concentration: concentration not given; endpoint: activity
SMILES = NC(N)=Nc1nc(CSCCC(N)=NS(N)(=O)=O)cs1; result = inactive
SMILES = OCCOCCN1CCN(C2=Nc3ccccc3Sc3ccccc32)CC1; result = inactive
SMILES = Cn1cnc([N+](=O)[O-])c1Sc1ncnc2nc[nH]c12; result = inactive
SMILES = COC(=O)[C@H](c1ccccc1Cl)N1CCc2sccc2C1; result = inactive
SMILES = Clc1cccc(Cl)c1N=C1NCCN1; result = inactive
SMILES = O=C1Nc2ccccc2/C1=C1/Nc2ccccc2C1=O; result = inactive
SMILES = O=C(O)c1cccnc1; result = inactive
SMILES = CCCN[C@H]1CCc2nc(N)sc2C1; result = inactive
SMILES = COc1cc(Cc2cnc(N)nc2N)cc(OC)c1OC; result = inactive
SMILES = CN/C(=N/CCSCc1nc[nH]c1C)NC#N; result = inactive
SMILES = Clc1ccc2nsnc2c1NC1=NCCN1; result = inactive
SMILES = Brc1c(NC2=NCCN2)ccc2nccnc12; result = inactive
SMILES = Nc1nc2ccc(Cl)cc2c2nc(-c3ccco3)nn12; result = inactive
SMILES = NNCCc1ccccc1; result = inactive
SMILES = CCc1cc(C(N)=S)ccn1; result = inactive

Single results of other studies
Structure (SMILES) = Cn1nc(C(F)(F)F)cc1-c1cnc(N2CCc3cc(S(=O)(=O)Nc4c(F)cc(Cl)cc4F)cc(N4CCCC4=O)c32)nc1; target or system = MGAT2 (human); assay = enzyme activity; endpoint = IC50; result = 0.0078 µM
Structure (SMILES) = COCC(=O)NCCCCCC(=O)N[C@H](C(=O)N1C[C@H](O)C[C@H]1C(=O)NCc1ccc(-c2scnc2C)cc1)C(C)(C)C; assay = PAMPA; endpoint = log permeability (Pe); result = -7.15
Structure (SMILES) = COc1cc(N[C@@H]2CCCC[C@]2(O)C(F)(F)F)ccc1F; target or system = TRPA1; assay = biochemical; endpoint = IC50; result = > 25 µM
Structure (SMILES) = NS(=O)(=O)c1ccccc1; assay = measured: sulfonamide group; endpoint = pKa; result = 10
Structure (SMILES) = CN(C)c1ncnc(-c2ccc3nc(Nc4cc(CN5CCN(C(=O)CC(F)(F)F)CC5)ccn4)[nH]c3c2)c1Cl; target or system = TBK1; setting = low ATP; endpoint = IC50; result = 1.14 µM
Structure (SMILES) = CC(=O)/N=c1/sc(S(N)(=O)=O)nn1C; assay = measured: sulfonamide group; endpoint = pKa; result = 7.1
Structure (SMILES) = O=C(O)c1cc(-c2ccc(C3CCNCC3)cc2)c2ccc(-c3ccc(C(F)(F)F)cc3)cc2c1; target or system = EGFR; assay = enzyme activity, Eurofins-Panlabs panel; setting = concentration not given; endpoint = IC50; result = 4.59 µM
